{"data": "Experimental data from different studies", "note": "Protocols differ between the studies behind these lines. ± marks the error that the study gave."}
{"Structure (SMILES)": "CCC1C(COc2nccc3cc(C(N)=O)c(OC)cc23)NC(=O)C1F (centres unmarked)", "tested on": "OCI-Ly3", "assay": "cell growth or viability, WST-1", "conditions": "72 h", "quantity": "GI50", "result": "> 10 µM"}
{"Structure (SMILES)": "O=C(Nc1cccc(Sc2ccc3c(/C=C/c4ccccn4)n[nH]c3c2)c1)c1ccco1", "tested on": "Ba/F3 TEL-VEGFR1", "assay": "cell growth, CCK-8", "quantity": "GI50", "result": "4.2 µM"}
{"Structure (SMILES)": "CCN1CCN(Cc2ccc(C(=O)Nc3ccc(C)c(NCc4cnc5[nH]ccc5c4OC)c3)cc2C(F)(F)F)CC1", "tested on": "U2OS overexpressing DDR1 G707A", "assay": "cell growth", "quantity": "GI50", "result": "0.68 µM"}
{"Structure (SMILES)": "O=C(CC(=O)Nc1ccc2[nH]nc(/C=C/c3ccccn3)c2c1)Nc1cccc(F)c1", "tested on": "Ba/F3 TEL-VEGFR1", "assay": "cell growth, CCK-8", "quantity": "GI50", "result": "0.3 µM"}
{"Structure (SMILES)": "C[n+]1cc(NC(=O)c2ccc3ccc4ccc(C(=O)Nc5cc6ccccc6[n+](C)c5)nc4c3n2)cc2ccccc21", "tested on": "MYC promoter parallel G-quadruplex DNA", "assay": "UV melting", "conditions": "6 µM, 1 mM potassium, together with: DNA 3 µM", "quantity": "delta Tm", "result": "> 37 °C"}
{"Structure (SMILES)": "[Cl-].[Cl-].[Ru+2].c1ccc(-c2ccccn2)nc1.c1ccc(-c2ccccn2)nc1.c1ccc2cc3nc4c5cccnc5c5ncccc5c4nc3cc2c1", "tested on": "SK-MEL-28", "assay": "sulforhodamine B", "conditions": "normoxia, together with: white visible light", "quantity": "GI50", "result": "0.042 µM"}
{"Structure (SMILES)": "CCN(C(=O)c1cc(F)ccc1Oc1nncnc1N1CCC2(C1)CN([C@H](CCCN(C)CCOC)C(C)C)C2)C(C)C", "tested on": "SU-DHL-6", "assay": "cell growth or viability", "conditions": "7 days", "quantity": "GI50", "result": "> 10 µM"}
{"Structure (SMILES)": "Fc1cncc(-c2ccc3[nH]c4ncnc(N[C@H]5CC[C@H](N6CCOCC6)CC5)c4c3c2)c1", "tested on": "OCI-Ly3", "assay": "cell growth or viability, WST-1", "conditions": "72 h", "quantity": "GI50", "result": "3.1 µM"}
{"Structure (SMILES)": "O=C(Nc1ccc(Cl)c(C(F)(F)F)c1)C1(C(=O)Nc2ccc3c(/C=C/c4ccccn4)n[nH]c3c2)CC1", "tested on": "Ba/F3 TEL-VEGFR1", "assay": "cell growth, CCK-8", "quantity": "GI50", "result": "> 10 µM"}
{"Structure (SMILES)": "CC(=O)N1c2ccc(-c3ccc(CNC(=O)c4cn5cc(-c6cnc(N)nc6)nc(N6CCOCC6)c5n4)cc3)cc2CC[C@@H]1C", "tested on": "OPM-2", "assay": "cell growth, ViaLight ATP", "conditions": "5 d", "quantity": "GI50", "result": "< 0.02 µM"}
{"Structure (SMILES)": "COc1cccc(C(=O)Nc2ccc(Sc3ccc4c(/C=C/c5ccccn5)n[nH]c4c3)cc2)c1", "tested on": "Ba/F3 TEL-VEGFR1", "assay": "cell growth, CCK-8", "quantity": "GI50", "result": "1.1 µM"}
{"Structure (SMILES)": "O=C(C[Se]C(=O)c1ccccc1Nc1ccccc1)Nc1cccc(C(F)(F)F)c1", "tested on": "UACC-2557", "assay": "NCI60 five-dose screen", "quantity": "GI50", "result": "0.99 µM"}
{"Structure (SMILES)": "CC1CCC2C(C)C(OC(=O)CCC(=O)OCCOCCOCCOC(=O)N3CCC(Nc4ccc(S(=O)(=O)NC(=O)c5ccc(N6CCN(CC7=C(c8ccc(Cl)cc8)CC(C)(C)CC7)CC6)cc5Oc5cnc6[nH]ccc6c5)cc4[N+](=O)[O-])CC3)OC3OC4(C)CCC1C32OO4 (centres unmarked)", "tested on": "U-937", "assay": "cell growth or viability", "quantity": "GI50", "result": "0.69 µM"}
{"Structure (SMILES)": "O=C(N/N=C/c1ccc2c(ccc[n+]2Cc2ccccc2)c1)c1ccc2ccc(C(=O)N/N=C/c3ccc4c(ccc[n+]4Cc4ccccc4)c3)nc2n1", "tested on": "MYC parallel G4 DNA", "assay": "FRET melting", "conditions": "1 µM, DNA 0.2 µM", "quantity": "ΔTm", "result": "13.4 ± 0.1 °C"}
